Literature values that unrelated publications cite.
Lines come from different studies, so protocols differ. ± gives the spread as reported.
CNR1: Cannabinoid receptor 1 (CNR1, Homo sapiens, UniProt P21554)

Protein sequences, listed by entry. Tags and fused reporters are not part of them. Residues count along the entry.
UniProt P21554, whole entry: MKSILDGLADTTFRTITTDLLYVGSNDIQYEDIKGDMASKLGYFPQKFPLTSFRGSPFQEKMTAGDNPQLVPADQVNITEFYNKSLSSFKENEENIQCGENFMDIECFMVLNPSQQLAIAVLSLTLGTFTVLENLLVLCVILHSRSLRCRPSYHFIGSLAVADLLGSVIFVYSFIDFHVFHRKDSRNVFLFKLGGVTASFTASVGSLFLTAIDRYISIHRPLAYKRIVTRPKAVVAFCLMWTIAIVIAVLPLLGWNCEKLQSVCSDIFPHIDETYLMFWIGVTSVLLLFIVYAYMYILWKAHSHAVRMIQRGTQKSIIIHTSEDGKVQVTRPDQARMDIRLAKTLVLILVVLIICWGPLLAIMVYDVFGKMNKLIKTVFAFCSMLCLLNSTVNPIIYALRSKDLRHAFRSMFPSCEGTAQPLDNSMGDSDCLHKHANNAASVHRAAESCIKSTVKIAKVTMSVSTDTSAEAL
UniProt O75530, whole entry: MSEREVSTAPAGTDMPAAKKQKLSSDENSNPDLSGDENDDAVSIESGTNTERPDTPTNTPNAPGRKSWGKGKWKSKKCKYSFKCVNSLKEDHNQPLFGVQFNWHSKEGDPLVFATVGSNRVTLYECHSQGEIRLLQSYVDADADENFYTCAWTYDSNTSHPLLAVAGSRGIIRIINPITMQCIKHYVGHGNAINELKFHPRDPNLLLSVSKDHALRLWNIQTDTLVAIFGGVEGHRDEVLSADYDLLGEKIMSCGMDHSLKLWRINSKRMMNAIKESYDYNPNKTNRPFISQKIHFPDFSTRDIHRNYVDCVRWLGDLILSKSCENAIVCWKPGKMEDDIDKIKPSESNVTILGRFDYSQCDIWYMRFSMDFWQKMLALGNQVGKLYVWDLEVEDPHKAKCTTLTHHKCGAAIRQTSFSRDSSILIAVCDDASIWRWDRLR
UniProt O15379, whole entry, looked up: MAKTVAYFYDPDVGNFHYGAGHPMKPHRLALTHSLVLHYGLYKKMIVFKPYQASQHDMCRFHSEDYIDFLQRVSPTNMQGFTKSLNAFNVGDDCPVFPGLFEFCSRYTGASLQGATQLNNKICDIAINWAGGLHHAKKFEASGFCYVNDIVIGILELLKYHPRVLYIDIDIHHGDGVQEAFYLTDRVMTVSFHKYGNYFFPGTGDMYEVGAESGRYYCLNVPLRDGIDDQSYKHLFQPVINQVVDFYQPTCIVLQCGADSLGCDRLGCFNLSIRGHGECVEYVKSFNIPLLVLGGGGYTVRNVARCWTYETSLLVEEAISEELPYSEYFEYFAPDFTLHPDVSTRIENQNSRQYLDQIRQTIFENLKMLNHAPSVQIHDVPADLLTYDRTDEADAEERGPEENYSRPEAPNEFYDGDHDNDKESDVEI
UniProt Q9Y618, whole entry, looked up: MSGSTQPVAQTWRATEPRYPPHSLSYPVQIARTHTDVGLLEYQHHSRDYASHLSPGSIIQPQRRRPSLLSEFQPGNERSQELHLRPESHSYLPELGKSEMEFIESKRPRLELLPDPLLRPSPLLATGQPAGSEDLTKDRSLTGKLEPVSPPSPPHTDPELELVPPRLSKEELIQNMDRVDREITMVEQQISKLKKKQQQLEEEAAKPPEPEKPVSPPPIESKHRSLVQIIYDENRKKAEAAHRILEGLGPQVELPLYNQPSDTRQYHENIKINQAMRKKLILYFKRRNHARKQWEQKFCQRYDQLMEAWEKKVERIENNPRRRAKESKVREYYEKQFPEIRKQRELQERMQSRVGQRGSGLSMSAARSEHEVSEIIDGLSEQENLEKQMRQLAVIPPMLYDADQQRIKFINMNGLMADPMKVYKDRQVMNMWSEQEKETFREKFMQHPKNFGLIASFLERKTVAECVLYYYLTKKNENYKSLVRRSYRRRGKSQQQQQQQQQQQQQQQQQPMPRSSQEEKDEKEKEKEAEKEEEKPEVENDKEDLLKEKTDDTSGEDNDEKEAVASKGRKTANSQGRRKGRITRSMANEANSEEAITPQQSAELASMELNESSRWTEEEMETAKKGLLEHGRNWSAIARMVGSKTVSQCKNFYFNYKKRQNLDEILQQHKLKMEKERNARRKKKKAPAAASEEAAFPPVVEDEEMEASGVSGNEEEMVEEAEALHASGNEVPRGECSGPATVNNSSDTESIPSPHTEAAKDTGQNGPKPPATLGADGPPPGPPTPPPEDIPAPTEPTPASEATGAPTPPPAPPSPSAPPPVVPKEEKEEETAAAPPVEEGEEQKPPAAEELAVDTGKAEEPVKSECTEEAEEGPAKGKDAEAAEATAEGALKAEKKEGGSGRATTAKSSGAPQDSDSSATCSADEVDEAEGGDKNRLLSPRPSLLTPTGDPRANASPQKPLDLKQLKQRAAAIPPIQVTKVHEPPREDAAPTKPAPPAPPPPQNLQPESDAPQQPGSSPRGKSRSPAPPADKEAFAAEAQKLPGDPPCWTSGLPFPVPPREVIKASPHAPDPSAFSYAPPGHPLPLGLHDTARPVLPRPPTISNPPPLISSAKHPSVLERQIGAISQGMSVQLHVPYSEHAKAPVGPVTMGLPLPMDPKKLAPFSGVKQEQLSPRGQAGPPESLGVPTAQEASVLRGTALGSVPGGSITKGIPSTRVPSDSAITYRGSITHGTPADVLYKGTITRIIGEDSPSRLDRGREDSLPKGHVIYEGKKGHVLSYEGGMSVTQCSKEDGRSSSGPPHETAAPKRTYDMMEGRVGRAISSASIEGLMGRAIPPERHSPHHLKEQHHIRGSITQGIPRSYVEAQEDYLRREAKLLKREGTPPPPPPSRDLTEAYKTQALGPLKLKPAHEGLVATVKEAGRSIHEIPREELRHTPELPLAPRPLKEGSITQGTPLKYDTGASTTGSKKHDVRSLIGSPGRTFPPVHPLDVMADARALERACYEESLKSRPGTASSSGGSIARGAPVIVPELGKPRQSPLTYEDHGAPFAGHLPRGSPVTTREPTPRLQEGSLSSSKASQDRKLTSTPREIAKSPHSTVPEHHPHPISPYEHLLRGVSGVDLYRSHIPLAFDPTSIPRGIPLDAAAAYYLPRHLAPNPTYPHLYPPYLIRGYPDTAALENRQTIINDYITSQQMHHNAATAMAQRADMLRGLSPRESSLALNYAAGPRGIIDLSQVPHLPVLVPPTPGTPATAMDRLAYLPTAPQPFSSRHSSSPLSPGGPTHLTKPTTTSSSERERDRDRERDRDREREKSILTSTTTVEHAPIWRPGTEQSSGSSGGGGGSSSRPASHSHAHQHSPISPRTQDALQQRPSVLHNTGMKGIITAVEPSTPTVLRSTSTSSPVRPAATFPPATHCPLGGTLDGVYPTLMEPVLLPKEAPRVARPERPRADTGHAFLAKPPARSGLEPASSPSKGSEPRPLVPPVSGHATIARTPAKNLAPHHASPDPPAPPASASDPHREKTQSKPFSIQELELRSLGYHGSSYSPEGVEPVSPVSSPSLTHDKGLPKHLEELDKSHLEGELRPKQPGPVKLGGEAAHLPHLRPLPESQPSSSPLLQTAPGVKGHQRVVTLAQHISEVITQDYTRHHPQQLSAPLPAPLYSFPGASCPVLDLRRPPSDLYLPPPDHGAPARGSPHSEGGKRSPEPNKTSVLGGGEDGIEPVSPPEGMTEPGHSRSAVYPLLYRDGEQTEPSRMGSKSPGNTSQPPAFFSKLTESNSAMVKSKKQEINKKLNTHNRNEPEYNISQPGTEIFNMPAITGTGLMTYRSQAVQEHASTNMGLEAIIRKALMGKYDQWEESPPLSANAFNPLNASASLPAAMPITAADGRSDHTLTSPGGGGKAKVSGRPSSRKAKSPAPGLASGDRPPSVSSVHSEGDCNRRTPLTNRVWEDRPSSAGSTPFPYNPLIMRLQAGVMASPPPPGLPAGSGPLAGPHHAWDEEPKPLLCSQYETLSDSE
UniProt P51531, 1378-1506 limits assumed: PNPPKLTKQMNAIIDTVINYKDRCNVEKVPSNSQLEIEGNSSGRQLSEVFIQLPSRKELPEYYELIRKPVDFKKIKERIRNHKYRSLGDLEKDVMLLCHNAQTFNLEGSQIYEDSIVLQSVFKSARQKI
UniProt Q9GZQ6, whole entry: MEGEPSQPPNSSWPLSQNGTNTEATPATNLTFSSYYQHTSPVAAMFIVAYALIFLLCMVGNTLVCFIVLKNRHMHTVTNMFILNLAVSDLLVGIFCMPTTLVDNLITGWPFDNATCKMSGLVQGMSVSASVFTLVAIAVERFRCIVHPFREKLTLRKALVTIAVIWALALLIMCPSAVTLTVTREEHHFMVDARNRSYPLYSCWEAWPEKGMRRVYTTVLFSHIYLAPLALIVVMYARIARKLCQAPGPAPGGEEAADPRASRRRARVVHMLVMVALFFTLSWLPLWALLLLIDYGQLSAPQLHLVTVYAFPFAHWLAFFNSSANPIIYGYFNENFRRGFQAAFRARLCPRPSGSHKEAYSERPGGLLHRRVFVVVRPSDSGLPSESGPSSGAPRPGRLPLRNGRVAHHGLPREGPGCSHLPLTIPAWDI
UniProt P30542, whole entry: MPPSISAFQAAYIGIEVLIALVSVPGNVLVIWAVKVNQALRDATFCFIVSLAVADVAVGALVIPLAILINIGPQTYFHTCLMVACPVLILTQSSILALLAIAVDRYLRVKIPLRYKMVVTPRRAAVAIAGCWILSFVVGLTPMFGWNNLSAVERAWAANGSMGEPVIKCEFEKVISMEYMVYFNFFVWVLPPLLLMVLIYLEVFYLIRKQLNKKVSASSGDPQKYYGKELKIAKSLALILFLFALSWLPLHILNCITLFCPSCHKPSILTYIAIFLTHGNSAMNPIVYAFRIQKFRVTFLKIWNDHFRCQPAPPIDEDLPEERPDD
UniProt P56524, whole entry: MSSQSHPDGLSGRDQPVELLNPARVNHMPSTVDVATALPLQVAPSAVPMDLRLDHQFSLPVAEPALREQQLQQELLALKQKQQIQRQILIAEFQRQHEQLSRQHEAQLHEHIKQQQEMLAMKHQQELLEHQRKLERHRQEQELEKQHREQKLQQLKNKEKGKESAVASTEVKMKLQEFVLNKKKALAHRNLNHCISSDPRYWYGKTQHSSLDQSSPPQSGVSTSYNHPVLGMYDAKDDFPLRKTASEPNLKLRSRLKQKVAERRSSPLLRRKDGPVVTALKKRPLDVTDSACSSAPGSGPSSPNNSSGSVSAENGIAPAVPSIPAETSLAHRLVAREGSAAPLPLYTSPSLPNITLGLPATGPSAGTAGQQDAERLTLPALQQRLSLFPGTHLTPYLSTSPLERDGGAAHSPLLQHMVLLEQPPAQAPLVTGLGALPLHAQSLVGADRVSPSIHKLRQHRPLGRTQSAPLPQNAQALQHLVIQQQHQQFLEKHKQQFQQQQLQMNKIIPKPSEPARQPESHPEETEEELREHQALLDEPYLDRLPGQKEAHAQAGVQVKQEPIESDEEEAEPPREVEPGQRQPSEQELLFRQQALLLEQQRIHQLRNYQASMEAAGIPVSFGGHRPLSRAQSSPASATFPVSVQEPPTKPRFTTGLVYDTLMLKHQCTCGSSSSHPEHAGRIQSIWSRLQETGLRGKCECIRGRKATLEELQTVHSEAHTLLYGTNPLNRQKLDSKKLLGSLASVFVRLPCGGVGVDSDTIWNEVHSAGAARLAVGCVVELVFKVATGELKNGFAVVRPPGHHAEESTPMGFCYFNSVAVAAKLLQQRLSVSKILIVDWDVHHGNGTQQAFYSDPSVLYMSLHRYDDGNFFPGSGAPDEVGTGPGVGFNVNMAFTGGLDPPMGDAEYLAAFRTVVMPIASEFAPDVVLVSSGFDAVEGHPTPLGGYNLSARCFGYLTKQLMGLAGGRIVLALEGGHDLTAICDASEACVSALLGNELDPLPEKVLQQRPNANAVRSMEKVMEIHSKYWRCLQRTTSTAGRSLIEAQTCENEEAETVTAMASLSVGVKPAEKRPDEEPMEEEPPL

CC(C)C[C@H](NC(=O)[C@@H](N)CCCNC(=N)N)C(=O)N[C@@H](CCC(N)=O)C(=O)N[C@@H](C)C(=O)N[C@@H](CCC(N)=O)C(=O)N[C@@H](CCCNC(=N)N)C(=O)N[C@@H](CCCC[N+](C)(C)C)C(=O)N[C@@H](Cc1ccccc1)C(=O)N[C@@H](C)C(=O)N[C@@H](CCC(N)=O)C(=O)N[C@@H](CO)C(=O)N[C@@H](CCC(N)=O)C(=O)N[C@@H](Cc1ccc(O)cc1)C(=O)O — affinity ratio (EED (Homo sapiens, UniProt O75530); reference: compound over H3K27me3): 10 fold
CC(=O)NCCCC[C@H](NC(=O)CNC(=O)[C@H](CC(C)C)NC(C)=O)C(=O)Nc1ccc2c(C)cc(=O)oc2c1 — Km (Histone deacetylase 3/Nuclear receptor corepressor 2 (HDAC3/NCoR2) (Homo sapiens, UniProt O15379+Q9Y618); substrate): 6 µM
CNC(=O)[C@@]12C[C@@H]1[C@@H](n1cnc3c(NCCc4ccc(OC)c(OC)c4)nc(C#Cc4ccc(Cl)s4)nc31)[C@H](O)[C@@H]2O — remaining compound (simulated intestinal fluid; 120 min): 100%
O=C(CC1CCCCC1)NC1CCN(c2ncnc3c2nc(-c2ccccc2Cl)n3-c2ccc(Cl)cc2)CC1 — Ke (CNR1; antagonist): 2 nM
CS(=O)(=O)N(CCCN1CCCCC1)c1ccc(Nc2ncc3cnn(C4CCCCCC4)c3n2)cc1 — IC50 (CDK4/6; kinase activity, inhibitor): 0.00156 µM
CS(=O)(=O)NC1CCN(c2ncnc3c2nc(-c2ccccc2Cl)n3-c2ccc(Cl)cc2)CC1 — selectivity ratio (CNR1; binding; reference: Ki CB2 over Ki CB1): 37
Cc1cc(C)cc(Nc2nccc(-c3c(-c4ccc(F)cc4)ncn3C3CCNCC3)n2)c1 — inhibition (SMARCA2 (Homo sapiens, UniProt P51531); concentration not given): > 35%
N=C(N)NCCC[C@H](NC(=O)c1ccccc1-c1ccccc1)C(=O)N[C@@H](Cc1ccccc1)C(N)=O — selectivity ratio (NPFFR1 (Homo sapiens, UniProt Q9GZQ6); antagonist; reference: Ki NPFF2-R over NPFF1-R): 1840 fold
CC(C)Nc1nc(Cl)nc2c1ncn2[C@H]1[C@H](O)[C@H](O)[C@@H]2C[C@@H]21 — Emax (ADORA1 (Homo sapiens, UniProt P30542); cAMP production inhibition, agonist; CHO cells, receptor-transfected; 10 µM, together with: forskolin; reference: reference full agonist): 50.5 ± 6.4%
CC(=O)N[C@@H](CC(C)C)C(=O)NCC(=O)N[C@@H](CCCCNC(=O)C(F)(F)F)C(=O)Nc1ccc2c(C)cc(=O)oc2c1 — Km (HDAC4 (Homo sapiens, UniProt P56524); substrate): 10.3 µM
CCC(C)NC(=O)CSc1nnc(Nc2ccc(C(C)C)cc2)s1 (stereo not drawn) — IC50 (HS27; cytotoxicity): > 100 µM
CC(=O)NCCCC[C@H](NC(=O)CNC(=O)[C@H](CC(C)C)NC(C)=O)C(=O)Nc1ccc2c(C)cc(=O)oc2c1 — Km (HDAC3 (Homo sapiens, UniProt O15379); substrate): 5.4 µM
CC(C)n1cnc2ccc3nc(C(=N)NCCN(C)C)sc3c2c1=O — IC50 (CDK4/6; kinase activity, inhibitor): 0.064 µM
O=S(=O)(NC1CCN(c2ncnc3c2nc(-c2ccccc2Cl)n3-c2ccc(Cl)cc2)CC1)c1ccccc1 — Ke (CNR1; antagonist): 0.3 nM
CCOC(=O)c1c(C)oc2cc(OC)c(OCc3oc4cc(OC)c(OS(=O)(=O)O)cc4c3C(=O)OCC)cc12 — inhibition (Prothrombin (F2, Homo sapiens, UniProt P00734); enzyme activity; concentration not given): 75 ± 1%
CC(=O)N[C@@H](CO)C(=O)N[C@@H](CCCNC(=N)N)C(=O)N[C@@H](CO)C(=O)N[C@H](C(=O)N[C@@H](COP(=O)(O)O)C(=O)N1CCC[C@H]1C(=O)N[C@H](C(=O)N[C@@H](Cc1ccccc1)C(=O)N[C@@H](CC(N)=O)C(=O)N[C@@H](CCCCN)C(N)=O)[C@@H](C)O)[C@@H](C)O — −TΔS (Breast cancer type 1 susceptibility protein, BRCT domain (BRCA1, Homo sapiens, UniProt P38398); binding, ITC): 3.7 ± 0.9 kcal/mol
CCCCC(=O)NC1CCN(c2ncnc3c2nc(-c2ccccc2Cl)n3-c2ccc(Cl)cc2)CC1 — selectivity ratio (CNR1; binding; reference: Ki CB2 over Ki CB1): 53
O=C(O)c1cc([C@H]2CCN[C@@H]2C(=O)O)ccc1Cl — IC50 (kainate receptor (rat); binding, radioligand binding; rat synaptosomes; together with: [3H]kainate): > 100 µM

A few entries again:
CCCCC(=O)NC1CCN(c2ncnc3c2nc(-c2ccccc2Cl)n3-c2ccc(Cl)cc2)CC1 — selectivity ratio (CNR1; binding; reference: Ki CB2 over Ki CB1): 53
CCC(C)NC(=O)CSc1nnc(Nc2ccc(C(C)C)cc2)s1 (stereo not drawn) — IC50 (HS27; cytotoxicity): > 100 µM
CC(=O)N[C@@H](CC(C)C)C(=O)NCC(=O)N[C@@H](CCCCNC(=O)C(F)(F)F)C(=O)Nc1ccc2c(C)cc(=O)oc2c1 — Km (HDAC4 (Homo sapiens, UniProt P56524); substrate): 10.3 µM
